# Assay results from different studies.
# Lines come from different studies, so protocols differ. ± marks the error that the study gave.
# ALB: Albumin (ALB, Homo sapiens, UniProt P02768)
# ABO G235S/G268A/L266M/R176G: Histo-blood group ABO system transferase (ABO, Homo sapiens, UniProt P16442, G235S/G268A/L266M/R176G)
# Sequence of UniProt P16442 (whole entry, unmodified, looked up): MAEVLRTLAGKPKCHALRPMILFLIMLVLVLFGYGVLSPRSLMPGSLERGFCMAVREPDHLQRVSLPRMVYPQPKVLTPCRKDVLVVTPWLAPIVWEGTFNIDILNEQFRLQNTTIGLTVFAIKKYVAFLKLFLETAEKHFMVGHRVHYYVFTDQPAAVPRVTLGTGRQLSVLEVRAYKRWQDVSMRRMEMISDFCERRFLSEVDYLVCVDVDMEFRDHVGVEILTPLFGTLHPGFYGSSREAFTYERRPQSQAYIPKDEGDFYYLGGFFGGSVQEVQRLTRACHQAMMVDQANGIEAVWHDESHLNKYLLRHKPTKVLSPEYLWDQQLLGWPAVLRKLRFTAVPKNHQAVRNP
# ESR2: Estrogen receptor beta (ESR2, Homo sapiens, UniProt Q92731)
# Sequence of UniProt Q92731 (whole entry, looked up): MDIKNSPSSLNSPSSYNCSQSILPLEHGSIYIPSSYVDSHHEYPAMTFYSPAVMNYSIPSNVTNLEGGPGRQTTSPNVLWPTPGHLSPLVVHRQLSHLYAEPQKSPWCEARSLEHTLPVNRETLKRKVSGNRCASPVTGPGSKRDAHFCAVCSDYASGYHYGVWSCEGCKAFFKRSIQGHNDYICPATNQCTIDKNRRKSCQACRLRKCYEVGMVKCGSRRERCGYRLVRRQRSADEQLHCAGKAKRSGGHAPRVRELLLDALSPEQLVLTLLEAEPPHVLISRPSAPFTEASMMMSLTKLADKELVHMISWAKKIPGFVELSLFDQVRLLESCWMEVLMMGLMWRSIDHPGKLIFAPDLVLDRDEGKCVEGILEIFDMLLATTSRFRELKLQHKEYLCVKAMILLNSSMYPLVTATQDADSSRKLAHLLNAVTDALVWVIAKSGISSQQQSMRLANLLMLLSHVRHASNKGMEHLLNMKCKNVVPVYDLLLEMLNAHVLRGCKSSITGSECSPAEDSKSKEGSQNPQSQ
# ESR1: Estrogen receptor (ESR1, Homo sapiens, UniProt P03372)
# Sequence of UniProt P03372 (whole entry, looked up): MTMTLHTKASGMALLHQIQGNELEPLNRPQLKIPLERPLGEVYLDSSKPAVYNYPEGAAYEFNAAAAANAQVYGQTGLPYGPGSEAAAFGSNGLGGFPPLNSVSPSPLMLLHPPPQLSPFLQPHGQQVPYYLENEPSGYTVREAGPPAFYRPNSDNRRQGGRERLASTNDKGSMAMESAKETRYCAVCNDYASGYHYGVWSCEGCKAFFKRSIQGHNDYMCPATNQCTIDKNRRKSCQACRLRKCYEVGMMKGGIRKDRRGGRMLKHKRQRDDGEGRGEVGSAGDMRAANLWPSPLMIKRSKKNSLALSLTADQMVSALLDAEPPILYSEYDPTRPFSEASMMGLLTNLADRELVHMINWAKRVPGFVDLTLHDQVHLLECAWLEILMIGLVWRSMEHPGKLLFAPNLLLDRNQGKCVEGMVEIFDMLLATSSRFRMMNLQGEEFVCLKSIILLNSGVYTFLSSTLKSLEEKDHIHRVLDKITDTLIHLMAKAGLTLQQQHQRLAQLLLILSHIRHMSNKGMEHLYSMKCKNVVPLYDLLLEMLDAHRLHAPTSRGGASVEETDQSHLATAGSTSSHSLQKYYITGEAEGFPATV
# SLC10A2: Ileal sodium/bile acid cotransporter (SLC10A2, Homo sapiens, UniProt Q12908)
# Sequence of UniProt Q12908 (whole entry, looked up): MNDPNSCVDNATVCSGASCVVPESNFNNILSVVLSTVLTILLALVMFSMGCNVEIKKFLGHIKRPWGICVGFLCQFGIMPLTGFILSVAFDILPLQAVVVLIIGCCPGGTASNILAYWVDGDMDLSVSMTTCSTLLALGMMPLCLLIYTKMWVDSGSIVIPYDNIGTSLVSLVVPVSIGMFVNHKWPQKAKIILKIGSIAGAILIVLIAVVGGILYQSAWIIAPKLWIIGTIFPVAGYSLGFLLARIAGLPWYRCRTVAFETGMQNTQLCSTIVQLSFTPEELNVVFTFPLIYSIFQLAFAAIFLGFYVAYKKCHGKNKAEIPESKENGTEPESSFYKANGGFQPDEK
# Sequence of UniProt Q03431 (whole entry, looked up): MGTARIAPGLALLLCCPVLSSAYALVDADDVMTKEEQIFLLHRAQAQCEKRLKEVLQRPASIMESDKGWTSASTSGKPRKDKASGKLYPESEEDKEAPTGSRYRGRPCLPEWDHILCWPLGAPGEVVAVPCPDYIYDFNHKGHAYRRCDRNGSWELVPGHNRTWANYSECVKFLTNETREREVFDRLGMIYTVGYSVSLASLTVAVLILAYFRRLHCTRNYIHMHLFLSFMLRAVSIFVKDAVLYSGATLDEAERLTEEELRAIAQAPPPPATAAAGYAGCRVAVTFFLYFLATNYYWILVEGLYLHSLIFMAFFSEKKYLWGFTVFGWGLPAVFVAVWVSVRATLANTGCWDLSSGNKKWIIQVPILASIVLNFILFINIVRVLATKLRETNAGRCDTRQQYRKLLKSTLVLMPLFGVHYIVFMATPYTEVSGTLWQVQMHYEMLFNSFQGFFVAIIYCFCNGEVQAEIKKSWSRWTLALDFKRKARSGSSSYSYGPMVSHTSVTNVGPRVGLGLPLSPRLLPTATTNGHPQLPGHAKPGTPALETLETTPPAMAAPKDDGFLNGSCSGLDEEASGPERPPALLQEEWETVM
# Sequence of UniProt P49137 (whole entry, looked up): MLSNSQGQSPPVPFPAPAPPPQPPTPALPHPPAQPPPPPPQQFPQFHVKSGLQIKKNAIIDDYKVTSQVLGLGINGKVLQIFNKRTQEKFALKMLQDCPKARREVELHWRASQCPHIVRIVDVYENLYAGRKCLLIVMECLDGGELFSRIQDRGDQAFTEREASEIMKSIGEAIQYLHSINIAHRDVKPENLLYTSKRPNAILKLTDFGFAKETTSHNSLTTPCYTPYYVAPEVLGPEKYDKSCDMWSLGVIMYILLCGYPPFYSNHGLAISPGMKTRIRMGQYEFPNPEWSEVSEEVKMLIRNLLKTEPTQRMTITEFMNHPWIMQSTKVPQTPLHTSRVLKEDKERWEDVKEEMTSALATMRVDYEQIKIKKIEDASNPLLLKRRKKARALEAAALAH
# Sequence of UniProt P07814 (whole entry, unmodified, looked up): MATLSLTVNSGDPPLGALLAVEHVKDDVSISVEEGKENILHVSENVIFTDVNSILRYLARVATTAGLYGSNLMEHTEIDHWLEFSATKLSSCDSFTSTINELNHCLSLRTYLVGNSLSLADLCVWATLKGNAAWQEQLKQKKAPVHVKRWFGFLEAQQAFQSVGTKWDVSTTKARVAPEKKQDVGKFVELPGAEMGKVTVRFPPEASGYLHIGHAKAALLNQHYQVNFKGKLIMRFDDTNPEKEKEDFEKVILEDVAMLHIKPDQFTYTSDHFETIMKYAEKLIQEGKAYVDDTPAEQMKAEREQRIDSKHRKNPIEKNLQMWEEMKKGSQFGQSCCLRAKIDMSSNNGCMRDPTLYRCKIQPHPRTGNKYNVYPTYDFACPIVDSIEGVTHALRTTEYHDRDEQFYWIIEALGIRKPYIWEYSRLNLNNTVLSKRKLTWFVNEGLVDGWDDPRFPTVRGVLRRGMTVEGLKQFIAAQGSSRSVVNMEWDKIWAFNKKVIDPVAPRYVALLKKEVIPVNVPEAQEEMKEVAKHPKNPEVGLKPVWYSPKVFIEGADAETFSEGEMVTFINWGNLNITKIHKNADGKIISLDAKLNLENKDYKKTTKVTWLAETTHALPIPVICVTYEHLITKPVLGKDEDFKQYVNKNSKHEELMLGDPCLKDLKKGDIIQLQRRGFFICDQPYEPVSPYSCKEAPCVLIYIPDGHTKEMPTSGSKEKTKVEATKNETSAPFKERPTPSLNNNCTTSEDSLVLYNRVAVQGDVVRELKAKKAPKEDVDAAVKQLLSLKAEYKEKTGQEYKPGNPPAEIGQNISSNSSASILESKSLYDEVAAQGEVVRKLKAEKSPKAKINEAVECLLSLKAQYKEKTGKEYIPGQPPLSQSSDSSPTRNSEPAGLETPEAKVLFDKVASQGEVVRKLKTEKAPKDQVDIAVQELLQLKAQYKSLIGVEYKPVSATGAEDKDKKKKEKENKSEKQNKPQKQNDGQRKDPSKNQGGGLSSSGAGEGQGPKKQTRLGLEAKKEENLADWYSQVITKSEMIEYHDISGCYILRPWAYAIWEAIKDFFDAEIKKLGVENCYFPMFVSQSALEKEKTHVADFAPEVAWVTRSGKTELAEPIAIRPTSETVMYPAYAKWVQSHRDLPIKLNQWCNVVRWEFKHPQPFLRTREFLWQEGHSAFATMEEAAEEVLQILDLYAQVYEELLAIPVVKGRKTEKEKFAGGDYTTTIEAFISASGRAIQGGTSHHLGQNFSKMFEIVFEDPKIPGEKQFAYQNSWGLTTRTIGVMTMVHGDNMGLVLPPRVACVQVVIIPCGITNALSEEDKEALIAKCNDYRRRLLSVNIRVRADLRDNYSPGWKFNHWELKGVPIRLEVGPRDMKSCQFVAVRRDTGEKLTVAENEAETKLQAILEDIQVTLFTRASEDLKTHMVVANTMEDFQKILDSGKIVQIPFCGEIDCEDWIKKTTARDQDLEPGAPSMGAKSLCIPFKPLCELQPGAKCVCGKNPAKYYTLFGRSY
SMILES,target,test,system,setting,how to read,quantity,value
[C-]#[O+].[C-]#[O+].[C-]#[O+].[C-]#[O+].[C-]#[O+].[C-]#[O+].[Cl-].[Cl-].[Re+].[Re+].c1cnc(-c2ncccn2)nc1,ALB,tryptophan fluorescence quenching,,,,quenching rate constant,4.49e+13 M⁻¹ s⁻¹
O=C1C=CC2(c3coc4cc(O)ccc4c3=O)c3cc(-c4coc5cc(O)ccc5c4=O)ccc3OC2C1 (centres unmarked),"PRXC1A (Armoracia rusticana, UniProt P00433)","substrate, Hill kinetic model",,"product formation, together with: hydrogen peroxide NG",,Hill coefficient,0.946
Cc1ccc(C(=O)Nc2ccc(CP(=O)(O)O)cc2CP(=O)(O)O)cc1NC(=O)c1cccc(NC(=O)Nc2cccc(C(=O)Nc3cc(C(=O)Nc4ccc(CP(=O)(O)O)cc4CP(=O)(O)O)ccc3C)c2)c1,"Neutrophil elastase (ELANE, Homo sapiens, UniProt P08246)","enzyme activity, inhibitor, chromogenic substrate hydrolysis",,"pH 7.4, 37 °C, 100 mM NaCl, together with: substrate S-1384",,Hill slope,1.4 ± 0.3
CCCCOc1ccc(C(=O)OCC[N+]2(C)CC=CCC2)cc1 (centres unmarked),"CHRM5 (Homo sapiens, UniProt P08912)","antagonist, measured: inositol phosphates",CHO,"M5, together with: carbachol",,cooperativity factor,0.0009 ± 0.0002
CC(C)C[C@H](NC(=O)[C@H](CC(=O)O)NC(=O)CNC(=O)[C@@H](N)CCCNC(=N)N)C(=O)N[C@@H](C)C(=O)N[C@H](C(=O)N[C@@H](CC(C)C)C(=O)NCCOCCOCCOCCOCCOCCOCCOCCOCCOCCOCCOCCOCCC(=O)N[C@@H](CSC1CC(=O)N(CCC(=O)NCCCC[C@H](NC(=O)CCN2C(=O)CC(SC[C@H](NC(=O)CCOCCOCCOCCOCCOCCOCCOCCOCCOCCOCCOCCOCCNC(=O)[C@H](CC(C)C)NC(=O)[C@@H](NC(=O)[C@H](C)NC(=O)[C@H](CC(C)C)NC(=O)[C@H](CC(=O)O)NC(=O)CNC(=O)[C@@H](N)CCCNC(=N)N)[C@@H](C)O)C(N)=O)C2=O)C(=O)NCCCC[C@H](NC(=O)[C@H](CCCCNC(=O)CCN2C(=O)CC(SC[C@H](NC(=O)CCOCCOCCOCCOCCOCCOCCOCCOCCOCCOCCOCCOCCNC(=O)[C@H](CC(C)C)NC(=O)[C@@H](NC(=O)[C@H](C)NC(=O)[C@H](CC(C)C)NC(=O)[C@H](CC(=O)O)NC(=O)CNC(=O)[C@@H](N)CCCNC(=N)N)[C@@H](C)O)C(N)=O)C2=O)NC(=O)CCN2C(=O)CC(SC[C@H](NC(=O)CCOCCOCCOCCOCCOCCOCCOCCOCCOCCOCCOCCOCCNC(=O)[C@H](CC(C)C)NC(=O)[C@@H](NC(=O)[C@H](C)NC(=O)[C@H](CC(C)C)NC(=O)[C@H](CC(=O)O)NC(=O)CNC(=O)[C@@H](N)CCCNC(=N)N)[C@@H](C)O)C(N)=O)C2=O)C(=O)NCCC(=O)O)C1=O)C(N)=O)[C@@H](C)O (some centres unmarked),"Integrin alpha-V/beta-6 (Homo sapiens, UniProt P06756+P18564)",H2009.1 phage uptake,,1 nM,baseline: compound over H2009.1 tetrameric 20-mer peptide,inhibition ratio,1.4 fold
OC(Cc1cc(-c2ccc(C(O)C(F)(F)F)s2)sc1-c1ccc(-c2sc(-c3ccc(C(O)C(F)(F)F)s3)cc2CC(O)C(F)(F)F)s1)C(F)(F)F (centres unmarked),"Microtubule-associated protein tau, 0N4R isoform, aggregated (MAPT, Homo sapiens, UniProt P10636)","binding, fluorescence",40% sucrose tau fraction,,baseline: 40% over 20% fraction,Kd ratio,9
Cc1cc(C)c2sc(NC(=O)C3CCN(S(=O)(=O)c4ccc(F)cc4)CC3)nc2c1,"N-acyl-phosphatidylethanolamine-hydrolyzing phospholipase D (Homo sapiens, UniProt Q6IQ20)",activator,HepG2,"concentration not given, together with: flame-NAPE substrate",,enzyme activity,increased
CCCNCC(=O)O,ALB,"binding, UV-vis absorption titration",,,,midpoint concentration,781 µM
COc1ccc(C(/C=C\CN2CCCC(C(=O)O)C2)(c2ccc(OC)cc2)c2ccc(OC)cc2)cc1 (centres unmarked),"Sodium- and chloride-dependent glycine transporter 1, isoform GlyT1c (SLC6A9, Homo sapiens, UniProt P48067)","inhibitor, MS binding competition",,"1.0 µM, pH 7.5, 22 °C, compound mixture deconvolution, together with: Org24598 15 nM",,remaining specific binding,42.1 ± 3.1%
CCCCCCCCCCCCCCCC(=O)NCCCC[C@H](NC(=O)[C@H](CCC(=O)O)NC(=O)[C@H](Cc1ccc(O)cc1)NC(=O)[C@H](CCC(=O)O)NC(=O)COCC(=O)NCCCOCCOCCOCCCNC(=O)[C@H](Cc1c[nH]c2ccccc12)NC(=O)[C@H](CCCCN)NC(=O)[C@H](C)NC(=O)[C@H](CCCCNC(=N)N)NC(=O)[C@H](CCC(N)=O)NC(=O)[C@H](Cc1c[nH]cn1)NC(=O)[C@H](CCSC)NC(=O)[C@H](CC(C)C)NC(=O)[C@H](CCC(N)=O)NC(=O)[C@@H](NC(=O)[C@H](CCC(=O)O)NC(=O)C(C)(C)NC(=O)[C@@H](NC(=O)C(C)(C)N)C(C)C)[C@@H](C)CC)C(=O)N[C@@H](CCC(=O)O)C(=O)N[C@@H](Cc1ccc(O)cc1)C(=O)N[C@@H](CCC(=O)O)C(N)=O,"PTH1R (Homo sapiens, UniProt Q03431)","cAMP signaling, agonist",SGS-72 cells,"concentration not given, ligand-on and washout",baseline: M-(1-14),potency fold change,≤ 10 fold
CC(=O)N(CC(=O)N(C)[C@@H](C)C(=O)N(Cc1c[nH]c2cc(Cl)ccc12)[C@@H](C)C(=O)N(C)[C@@H](C)C(=O)N(CCC(C)(C)C)[C@@H](C)C(=O)N1CCNCC1)Cc1ccccc1,"E3 ubiquitin-protein ligase Mdm2, N-terminal domain 17-125 (MDM2, Homo sapiens, UniProt Q00987)","binding, SPR",PBS with Tween,"10 °C, immobilised peptoid",,kon,537000 M⁻¹ s⁻¹
NC(=O)C1CCNC(=O)C(CCCNC(=O)c2cnccn2)NC(=O)C(CC2CCCCC2)NC(=O)C(CC=Cc2ccccc2)NC(=O)C=CC(=O)N1 (centres unmarked),"MAPKAPK2 (Homo sapiens, UniProt P49137)",DNA-templated library selection,,one selection round,,enrichment factor,2.6
CCNC(=O)[C@H]1O[C@@H](n2cnc3c(Nc4ccc(I)cc4)ncnc32)[C@H](O)[C@@H]1O,"ADORA3 (Homo sapiens, UniProt P0DMS8)",kinetic radioligand binding,,"no GTP, together with: [3H]PSB-11",,residence time,117 ± 12 min
C=CCCCCCCO[C@@H]1O[C@H](CO)[C@@H](O[C@@H]2O[C@H](CO)[C@H](O)[C@H](O)[C@H]2O[C@@H]2O[C@@H](C)[C@@H](O)[C@@H](O)[C@@H]2O)[C@H](O)[C@H]1O,ABO G235S/G268A/L266M/R176G,methyl-TROSY NMR titration lineshape analysis,,apo enzyme,,koff,340 ± 10 s⁻¹
CCC(=C(c1ccc(O)cc1)c1ccc(OCCN(C)CCOCCOCCOCCN(C)CCOc2ccc(C(=C(CC)c3ccccc3)c3ccc(O)cc3)cc2)cc1)c1ccccc1 (mixture of isomers),ESR2,radioligand competition binding,,"concentration not given, Z-E/E isomer form, together with: [3H]estradiol tracer",baseline: estradiol,relative binding affinity,9.57 ± 1.8%
O=S([O-])c1ccccc1N=Cc1ccccc1[O-].[Cu+2].c1c[nH]cn1,ALB,FRET,,,,Förster radius,2.48 nm
NCCCC[C@H](NC(=O)[C@H](C/C=C\C[C@H](NC(=O)[C@@H]1CCCN1)C(=O)N[C@@H](CCCCN)C(=O)NCCCN)NC(=O)[C@@H]1CCCN1)C(=O)NCCCN,(CCUG)10 RNA,SPR,,,,residence time,0.0333 min
CCc1cc2c(Nc3cn[nH]c3)ncnc2s1,"MAPK10 (Homo sapiens, UniProt P53779)",native mass spectrometry,,100 µM,,protein occupancy,68.6%
CCCCCCCCO[C@@H]1O[C@H](CO)[C@H](O)[C@H](O[C@H]2O[C@H](CO)[C@H](O)[C@H](O)[C@H]2O)[C@H]1O[C@@H]1O[C@@H](C)[C@@H](O)[C@@H](O)[C@@H]1O,ABO G235S/G268A/L266M/R176G,methyl-TROSY NMR titration lineshape analysis,,apo enzyme,,kon,1.1e+07 M⁻¹ s⁻¹
C/C(=N\OCCN1CCCCC1)c1cccc(C(F)(F)F)c1,rat sigma-1 receptor,binding,,together with: phenytoin 250 µM,baseline: without over with phenytoin,Ki ratio,1
CCC(=C(c1ccc(O)cc1)c1ccc(OCCN(C)CCOCCOCCOCCOCCOCCN(C)CCOc2ccc(C(=C(CC)c3ccccc3)c3ccc(O)cc3)cc2)cc1)c1ccccc1 (mixture of isomers),ESR2,radioligand competition binding,,"concentration not given, Z-Z/Z isomer form, together with: [3H]estradiol tracer",baseline: estradiol,relative binding affinity,12.8 ± 2%
CC(=C(c1ccc(Cl)cc1)c1ccc(OCCN2CCCC2)cc1)c1ccc(Cl)cc1,ESR1,"reporter gene, agonist, yeast estrogen screen",,1 µM,baseline: DMSO,fold activation,1.57 ± 0.14 fold
CCNC(=O)[C@H]1O[C@@H](n2cnc3c(NCCOCCOCCNC(=O)CCCCCNC(=O)COc4ccc(/C=C/C5=[N+]6C(=Cc7ccc(-c8cccs8)n7[B-]6(F)F)C=C5)cc4)ncnc32)[C@H](O)[C@@H]1O,"ADORA1 (Homo sapiens, UniProt P30542)",CRE reporter gene,CHO-A1,"Gi response, together with: forskolin",,log Kd minus log IC50,0.97
"CC(=O)C12NC(C)(C)CC1(C)C(=O)C1=C2c2c(c3c4n2C(C)(C)CC2=C4C4(CC(C)(C)NC(C)(C4)C2=O)CC3(C)C)C(=O)C(C)(C)N1 (single isomer, unassigned; (-))","OPRM1 (Homo sapiens, UniProt P35372)","cAMP level, agonist, LANCE Ultra cAMP",CHO cells,concentration not given,,activity,inactive
CCCCCCCCCCSc1nc2c([nH]1)c(=S)n(C)c(=S)n2C,ESR1,"reporter gene, ERE luciferase",T47D-KBluc,"10 µM, 24 h, together with: estradiol 5 nM",baseline: maximal luciferase activity,reporter activity,96%
O=C(NC1CC=C(c2cc3c(Nc4cc5ncsc5cc4F)ncnc3s2)CC1)NC1CC1 (racemic),"RIPK1 (Homo sapiens, UniProt Q13546)",enzyme activity,,1 µM,baseline: untreated,remaining activity,99 ± 2%
CCC(=C(c1ccc(Cl)cc1)c1ccc(OCCN(CC)CC)cc1)c1ccc(OC)cc1,ESR1,"reporter gene, agonist, yeast estrogen screen",,1 µM,baseline: DMSO,fold activation,3.27 ± 0.31 fold
COc1ccc(NC(=O)CC[C@H](NC(=O)CC[C@@H](C)[C@H]2CC[C@H]3[C@@H]4[C@H](O)C[C@@H]5C[C@H](O)CC[C@]5(C)[C@H]4CC[C@]23C)C(=O)O)cn1,SLC10A2,"transport, substrate",ASBT-MDCK cells,unit not given,baseline: taurocholate Jmax,Jmax,0.242
Cc1cc(N2CC[C@@](C#N)(C3(C)CC3)C2=O)cc(C(=O)NCc2cc(F)cc(-c3cnn(C)c3)c2)n1,"EPRS1 (Homo sapiens, UniProt P07814)",thermal stability,,,,ΔTm,17 °C
CC(C=CC=CC=CC1=C(C)CCCC1(C)C)=CCO,"Rhodopsin (RHO, Homo sapiens, UniProt P08100, P23H)","pharmacological chaperone, immunostaining, nonpermeabilized cells",661W,"2.5 µM, 16 h",baseline: untreated cells,cell surface expression,~2 fold
CC(CCC(=O)NC(CCC(=O)Nc1ccc(Br)nc1)C(=O)O)C1CCC2C3C(O)CC4CC(O)CCC4(C)C3CCC12C (centres unmarked),SLC10A2,"transport efficiency, substrate, LC-MS/MS",ASBT-MDCK,,,normalized Jmax/Kt,0.0415 µM⁻¹
CCCCCCOc1ccc(C(=O)OCCN2CC=CCC2)cc1,"CHRM1 (Homo sapiens, UniProt P11229)",,,together with: [3H]-NMS,baseline: xanomeline over cpd,dissociation half-time ratio,~6

# Repeated from above:
SMILES,target,test,system,setting,how to read,quantity,value
CCCCCCCCCCCCCCCC(=O)NCCCC[C@H](NC(=O)[C@H](CCC(=O)O)NC(=O)[C@H](Cc1ccc(O)cc1)NC(=O)[C@H](CCC(=O)O)NC(=O)COCC(=O)NCCCOCCOCCOCCCNC(=O)[C@H](Cc1c[nH]c2ccccc12)NC(=O)[C@H](CCCCN)NC(=O)[C@H](C)NC(=O)[C@H](CCCCNC(=N)N)NC(=O)[C@H](CCC(N)=O)NC(=O)[C@H](Cc1c[nH]cn1)NC(=O)[C@H](CCSC)NC(=O)[C@H](CC(C)C)NC(=O)[C@H](CCC(N)=O)NC(=O)[C@@H](NC(=O)[C@H](CCC(=O)O)NC(=O)C(C)(C)NC(=O)[C@@H](NC(=O)C(C)(C)N)C(C)C)[C@@H](C)CC)C(=O)N[C@@H](CCC(=O)O)C(=O)N[C@@H](Cc1ccc(O)cc1)C(=O)N[C@@H](CCC(=O)O)C(N)=O,"PTH1R (Homo sapiens, UniProt Q03431)","cAMP signaling, agonist",SGS-72 cells,"concentration not given, ligand-on and washout",baseline: M-(1-14),potency fold change,≤ 10 fold
CC(C=CC=CC=CC1=C(C)CCCC1(C)C)=CCO,"Rhodopsin (RHO, Homo sapiens, UniProt P08100, P23H)","pharmacological chaperone, immunostaining, nonpermeabilized cells",661W,"2.5 µM, 16 h",baseline: untreated cells,cell surface expression,~2 fold
